Experimental data collected from several papers.
A part holds a random share of what one study measured. Substitutions count along the parent as printed.

Sample 1 — target: NFE2L1, bZIP domain (human); method: DHFR protein complementation; matrix: yeast; reference: wild-type JUN-FOS pair; direction: higher = stronger binding
Notes: single substitutions, most at no-binding floor
Starting sequence: JUN, bZIP domain (human); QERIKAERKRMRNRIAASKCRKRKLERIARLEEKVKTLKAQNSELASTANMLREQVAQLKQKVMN; partner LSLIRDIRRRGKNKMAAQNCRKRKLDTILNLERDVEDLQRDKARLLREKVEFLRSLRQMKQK
`R30W` has a binding fitness of -1.41 natural log.
`E33A` gave a binding fitness of -1.58 natural log.
For `S47C`, the binding fitness was -1.47 natural log.
For `K39P`, the binding fitness was -1.51 natural log.
For `N42C`, the binding fitness was -1.52 natural log.
`L38Q` has a binding fitness of -1.57 natural log.
The binding fitness of `S43Q` is reported as -1.5 natural log.
`R30Y` has a binding fitness of -1.12 natural log.

Sample 2 — target: CEP164, C-terminal peptide (human); method: DHFR complementation, deep sequencing; matrix: yeast; reference: wild type; direction: higher = weaker binding
Notes: single substitutions, model-inferred values
Starting sequence: PDZK1, PDZ domain 2 (human); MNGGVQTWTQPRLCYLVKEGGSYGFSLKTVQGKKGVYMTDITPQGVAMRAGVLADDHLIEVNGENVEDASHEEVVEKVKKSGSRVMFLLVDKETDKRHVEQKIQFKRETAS; partner HNRVKVYRF
`A110I` — result for “binding free energy change”: -0.119 kcal/mol.
`Q31K` — result for “binding free energy change”: 0.0935 kcal/mol.
Under “binding free energy change”, `V74K` is recorded as 1.12 kcal/mol.
For `F105L`, “binding free energy change” read -0.176 kcal/mol.
`A50C`: “binding free energy change” 0.153 kcal/mol.
`L16F`: “binding free energy change” 1.33 kcal/mol.
`L53C` — result for “binding free energy change”: 0.0863 kcal/mol.
For `A54M`, “binding free energy change” read 0.191 kcal/mol.

Sample 3 — method: Spec-seq; molecule type: double-stranded DNA, one strand shown; matrix: in vitro; concentration: not given; notes: whole probe, mean of replicates; reference: not given; direction: lower = stronger binding; constant ends, left off below: GAGTCGTCTCGTCAGCAC … CCGTAGAGCACTCAGGTC
Target: POU, POU domain (Salpingoeca helianthica)
Residues (chain): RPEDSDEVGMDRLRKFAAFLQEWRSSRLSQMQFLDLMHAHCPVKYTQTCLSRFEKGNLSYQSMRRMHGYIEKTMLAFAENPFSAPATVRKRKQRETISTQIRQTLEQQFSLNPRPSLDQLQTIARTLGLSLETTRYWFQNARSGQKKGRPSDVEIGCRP
For `ATGCACGA`, “relative binding energy” read 1.33 ln ratio.
`ATTCAGAT`: “relative binding energy” 1.23 ln ratio.
`GCCGTAAT` — result for “relative binding energy”: 0.87 ln ratio.
Under “relative binding energy”, `ATGCAGTC` is recorded as 1.34 ln ratio.
Under “relative binding energy”, `ATCGCGAT` is recorded as 1.31 ln ratio.
`GACGTAAT`: “relative binding energy” 0.461 ln ratio.
Under “relative binding energy”, `CGGCTAAT` is recorded as 0.575 ln ratio.
For `ACAATAAT`, “relative binding energy” read 0.208 ln ratio.

Further values, each from its own experiment
For COc1cc(C)ccc1OCCN1CC[C@H]2CNC[C@H]21, the remaining compound was 56.4% (human, microsomes or S9; 2 µM, 0.5 h).

Excerpt of the above (sample 1):
For `K39P`, the binding fitness was -1.51 natural log.
The binding fitness of `S43Q` is reported as -1.5 natural log.
